Results from different studies.
A part holds a random share of what one study measured.

Series 1 — method: protein binding microarray; molecule type: double-stranded DNA, one strand shown; sample: in vitro; tested at: not given; baseline: not given; reading: higher = stronger binding; quantity: E-score
Target: Histone acetyltransferase KAT6A, winged helix 1, GST fusion (KAT6A, Homo sapiens, UniProt Q92794, residues 1-85)
Notes: 8-mer, flanks averaged, mean of 2 arrays, mostly near background
Target sequence (chain): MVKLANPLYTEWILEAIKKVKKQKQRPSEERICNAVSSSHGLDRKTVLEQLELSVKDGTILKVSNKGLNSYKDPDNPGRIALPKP
CTAGTTGA: -0.118
ATAGCGTA: 0.264
TGGGCAAA: -0.28
AACTATAA: 0.00861
CCTCGCAA: -0.0865
CTTCTCGA: -0.27
AACTCCCC: 0.00386

Series 2 — method: universal PBM; molecule type: double-stranded DNA, one strand shown; sample: in vitro; tested at: not given; reading: higher = stronger binding; quantity: E-score
Target: Sal-like protein 4, full length isoform B (SALL4, Homo sapiens, UniProt Q9UJQ4-2, residues 1-616)
Notes: 8-mer, flanks averaged, mean of replicates
Construct (chain): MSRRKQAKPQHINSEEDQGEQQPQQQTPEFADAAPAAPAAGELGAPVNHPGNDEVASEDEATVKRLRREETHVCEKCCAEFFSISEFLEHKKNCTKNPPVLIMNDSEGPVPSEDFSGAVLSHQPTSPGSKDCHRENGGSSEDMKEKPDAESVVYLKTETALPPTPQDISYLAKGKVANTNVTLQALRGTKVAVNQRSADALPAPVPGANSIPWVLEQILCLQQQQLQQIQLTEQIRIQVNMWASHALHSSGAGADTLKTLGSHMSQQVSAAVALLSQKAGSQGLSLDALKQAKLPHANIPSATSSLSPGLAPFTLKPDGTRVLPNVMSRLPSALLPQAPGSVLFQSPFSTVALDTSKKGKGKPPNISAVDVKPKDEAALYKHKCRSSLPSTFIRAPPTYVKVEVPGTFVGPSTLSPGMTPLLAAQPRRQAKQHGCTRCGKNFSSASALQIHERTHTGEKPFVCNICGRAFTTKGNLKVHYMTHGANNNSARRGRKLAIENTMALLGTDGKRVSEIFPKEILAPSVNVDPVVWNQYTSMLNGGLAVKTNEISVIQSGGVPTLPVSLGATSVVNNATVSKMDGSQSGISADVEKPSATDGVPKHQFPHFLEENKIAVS
CATCTGGC: -0.107
AGATTACC: 0.104
ACGTCGCA: -0.182
TATTTGAA: 0.276
AAAGGCGC: -0.21
AACTCCTA: 0.0193
ACATTCAC: 0.135

Series 3 — method: protein-binding microarray; molecule type: double-stranded DNA, one strand shown; sample: in vitro; tested at: 2200 nM top; notes: 60-bp whole probe; together with: salmon DNA 0.4 mg/ml; baseline: random background probes; reading: higher = stronger binding; quantity: fitted relative affinity; all sequences stand within: GCCTAGCAC … GTCTTGATTCGCTTGACGCTGCTG
Target: Interferon regulatory factor 7, full length, phosphomimetic (IRF7, Homo sapiens, UniProt Q92985, residues 1-503, S471D/S472D/S475D/S476D/S477D/S483D/S484D/S487D)
Sequence of UniProt Q92985 (whole entry, unmodified, looked up): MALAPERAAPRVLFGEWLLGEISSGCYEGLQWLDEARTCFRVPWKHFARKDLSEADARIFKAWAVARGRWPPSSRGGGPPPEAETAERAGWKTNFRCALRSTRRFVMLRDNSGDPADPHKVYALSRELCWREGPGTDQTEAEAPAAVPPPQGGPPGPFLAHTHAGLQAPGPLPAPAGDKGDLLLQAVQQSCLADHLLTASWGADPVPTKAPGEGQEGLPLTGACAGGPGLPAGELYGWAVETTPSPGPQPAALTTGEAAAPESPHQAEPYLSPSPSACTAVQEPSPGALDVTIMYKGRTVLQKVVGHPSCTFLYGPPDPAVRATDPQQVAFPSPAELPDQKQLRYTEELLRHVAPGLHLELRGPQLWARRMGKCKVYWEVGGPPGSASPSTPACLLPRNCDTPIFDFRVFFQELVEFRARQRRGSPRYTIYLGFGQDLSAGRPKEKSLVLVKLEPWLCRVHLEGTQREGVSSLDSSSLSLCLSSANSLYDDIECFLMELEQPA
TCTATTTTCTGAATGTCTTCGTGCTAG: 4.45 z-score
GACGGACTGCTTATCATGACGTGCTAG: 0.119 z-score
TTAAATTTCGGGTTTCGATTAGTGCTA: 6.89 z-score
GACTATATCGGGACTGGAGACGTGCTA: -0.125 z-score
TCAGATTTTGTCCTCCCACTGTGCTAG: 1.27 z-score
GAATGTCTTCCCCTCTCTTTGTGCTAG: 2.16 z-score
GTAGAACTGAGTCTCGATTAGTGCTAG: 0.109 z-score
GACGGTGTCCTTCTCCTGACGTGCTAG: 0.556 z-score

Further values, each from its own experiment
PhoQ, residues 284 288 289 292 302 303 QWQEDG
fold induction (PhoP, residues 12 14 15 18 19 STHWV (Escherichia coli, UniProt P23836); Sort-seq, measured: YFP reporter; E. coli; PhoQ-PhoP variant library, together with: 10 µM Mg2+; baseline: high Mg2+ state, higher = stronger signaling): 16.2
